Measurements of several laboratories.
A part holds a random share of what one study measured. Substitutions count along the parent as printed.

Series 1
Target: FOSB, bZIP domain (human)
Method: DHFR protein complementation
Matrix: yeast
Notes: single substitutions, most at no-binding floor
Reference: wild-type JUN-FOS pair
Reading: higher = stronger binding
Starting sequence: JUN, bZIP domain (human); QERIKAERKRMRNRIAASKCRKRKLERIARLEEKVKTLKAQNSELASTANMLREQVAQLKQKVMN; partner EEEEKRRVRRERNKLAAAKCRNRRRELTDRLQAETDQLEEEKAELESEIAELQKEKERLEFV
Substitution | binding fitness
T37R | -0.0567 natural log
K39L | -0.57 natural log
E32Q | -0.186 natural log
A57W | -0.269 natural log
E44Q | -0.0614 natural log
K36L | -0.122 natural log
E32L | -0.168 natural log
V35G | -0.993 natural log

Series 2
Target: Cyclic AMP-dependent transcription factor ATF-1 (ATF1, Homo sapiens, UniProt P18846, residues 1-271, full length assumed)
Method: protein-binding microarray
Form: double-stranded DNA, one strand shown
Matrix: in vitro
Tested at: not given
Notes: k-mer, scored over probes, only values ≥0.25
Reading: higher = stronger binding
Construct (chain): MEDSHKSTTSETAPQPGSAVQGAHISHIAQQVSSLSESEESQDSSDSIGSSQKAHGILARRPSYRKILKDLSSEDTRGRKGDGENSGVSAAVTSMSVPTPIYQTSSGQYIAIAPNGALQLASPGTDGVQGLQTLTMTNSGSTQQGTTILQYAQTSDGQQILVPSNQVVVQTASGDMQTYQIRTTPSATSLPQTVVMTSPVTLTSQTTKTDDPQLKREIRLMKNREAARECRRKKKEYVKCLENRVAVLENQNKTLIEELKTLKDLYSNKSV
Sequence | E-score
ACGACGC | 0.261
ACGAAAT | 0.264
AATGCGT | 0.285
AACGCAT | 0.286
CGATGAC | 0.41
CACATCA | 0.258
ATACGTG | 0.372
CGTCACG | 0.487

Series 3
Target: Sal-like protein 4, full length isoform A (SALL4, Homo sapiens, UniProt Q9UJQ4, residues 1-1053)
Chain of UniProt Q9UJQ4 (whole entry, looked up): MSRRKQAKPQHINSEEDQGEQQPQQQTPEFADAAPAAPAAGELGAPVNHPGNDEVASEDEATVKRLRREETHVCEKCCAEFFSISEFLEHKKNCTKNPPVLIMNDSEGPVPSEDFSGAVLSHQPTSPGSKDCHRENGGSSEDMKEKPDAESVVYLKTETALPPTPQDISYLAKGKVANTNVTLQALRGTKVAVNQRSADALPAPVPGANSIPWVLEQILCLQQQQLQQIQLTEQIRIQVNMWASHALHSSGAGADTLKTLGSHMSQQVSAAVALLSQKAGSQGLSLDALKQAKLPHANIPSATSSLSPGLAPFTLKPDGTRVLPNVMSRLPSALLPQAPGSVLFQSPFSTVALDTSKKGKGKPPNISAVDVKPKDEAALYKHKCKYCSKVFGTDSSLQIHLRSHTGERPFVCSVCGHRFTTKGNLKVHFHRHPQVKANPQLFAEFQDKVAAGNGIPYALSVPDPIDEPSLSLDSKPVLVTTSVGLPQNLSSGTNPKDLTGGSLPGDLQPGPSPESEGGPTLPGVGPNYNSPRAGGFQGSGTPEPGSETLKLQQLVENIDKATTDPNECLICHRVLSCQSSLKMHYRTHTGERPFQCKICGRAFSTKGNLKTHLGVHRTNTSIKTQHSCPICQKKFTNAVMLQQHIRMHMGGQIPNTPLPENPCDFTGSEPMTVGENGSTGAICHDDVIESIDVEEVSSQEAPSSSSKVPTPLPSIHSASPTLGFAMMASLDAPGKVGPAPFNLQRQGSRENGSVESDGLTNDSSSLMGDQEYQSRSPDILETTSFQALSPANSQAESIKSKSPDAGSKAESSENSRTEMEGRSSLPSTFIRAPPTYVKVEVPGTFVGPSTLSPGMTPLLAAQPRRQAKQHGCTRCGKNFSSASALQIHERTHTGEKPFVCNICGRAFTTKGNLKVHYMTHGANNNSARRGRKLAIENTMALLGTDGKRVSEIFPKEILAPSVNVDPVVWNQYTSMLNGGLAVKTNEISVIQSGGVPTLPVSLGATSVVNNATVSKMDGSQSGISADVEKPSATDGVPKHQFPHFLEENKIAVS
Method: universal PBM
Form: double-stranded DNA, one strand shown
Matrix: in vitro
Tested at: 600 nM
Notes: 8-mer, flanks averaged, mean of replicates
Reading: higher = stronger binding
Sequence | E-score
GCAATTAC | 0.0819
ACGAGGAC | -0.183
CGTGGGTC | -0.239
GGGATAAC | -0.0342
AACCCGTT | -0.168
ATATCCTC | 0.171
TCTCTTCA | -0.0242
CCCTCGCC | -0.261

Further values, each from its own experiment
SMILES | test system | conditions | endpoint | result
CCOc1ccc(-c2c(C)n[nH]c2NC(=O)c2cc(OC)cc(OC)c2)cc1OCC | mouse, microsomes or S9 | 2 µM, 0.5 h | remaining compound | 0.309%

Repeated from above (series 3):
Sequence | E-score
GGGATAAC | -0.0342
TCTCTTCA | -0.0242
AACCCGTT | -0.168
